Measured values of several laboratories.
Protocols differ between the studies behind these lines.
ache: Acetylcholinesterase (ache, Electrophorus electricus, UniProt O42275)
UniProt O42275, sequence (whole entry, looked up): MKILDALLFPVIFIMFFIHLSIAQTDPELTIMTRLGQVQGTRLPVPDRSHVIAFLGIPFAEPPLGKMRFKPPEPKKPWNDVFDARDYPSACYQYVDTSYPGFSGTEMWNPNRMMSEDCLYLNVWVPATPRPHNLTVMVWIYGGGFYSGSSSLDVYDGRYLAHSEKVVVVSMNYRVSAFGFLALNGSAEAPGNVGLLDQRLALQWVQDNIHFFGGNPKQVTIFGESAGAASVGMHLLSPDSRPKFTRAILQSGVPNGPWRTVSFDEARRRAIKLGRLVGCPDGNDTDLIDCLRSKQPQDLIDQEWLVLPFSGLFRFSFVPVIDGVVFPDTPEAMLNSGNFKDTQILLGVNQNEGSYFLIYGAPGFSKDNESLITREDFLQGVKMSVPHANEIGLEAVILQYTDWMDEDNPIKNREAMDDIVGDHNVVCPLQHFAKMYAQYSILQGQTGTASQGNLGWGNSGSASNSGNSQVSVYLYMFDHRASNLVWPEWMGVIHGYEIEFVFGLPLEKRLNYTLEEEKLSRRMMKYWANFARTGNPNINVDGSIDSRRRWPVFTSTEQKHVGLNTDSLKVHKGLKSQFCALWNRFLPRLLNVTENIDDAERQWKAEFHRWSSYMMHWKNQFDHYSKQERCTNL
UniProt P03372, sequence (whole entry, looked up): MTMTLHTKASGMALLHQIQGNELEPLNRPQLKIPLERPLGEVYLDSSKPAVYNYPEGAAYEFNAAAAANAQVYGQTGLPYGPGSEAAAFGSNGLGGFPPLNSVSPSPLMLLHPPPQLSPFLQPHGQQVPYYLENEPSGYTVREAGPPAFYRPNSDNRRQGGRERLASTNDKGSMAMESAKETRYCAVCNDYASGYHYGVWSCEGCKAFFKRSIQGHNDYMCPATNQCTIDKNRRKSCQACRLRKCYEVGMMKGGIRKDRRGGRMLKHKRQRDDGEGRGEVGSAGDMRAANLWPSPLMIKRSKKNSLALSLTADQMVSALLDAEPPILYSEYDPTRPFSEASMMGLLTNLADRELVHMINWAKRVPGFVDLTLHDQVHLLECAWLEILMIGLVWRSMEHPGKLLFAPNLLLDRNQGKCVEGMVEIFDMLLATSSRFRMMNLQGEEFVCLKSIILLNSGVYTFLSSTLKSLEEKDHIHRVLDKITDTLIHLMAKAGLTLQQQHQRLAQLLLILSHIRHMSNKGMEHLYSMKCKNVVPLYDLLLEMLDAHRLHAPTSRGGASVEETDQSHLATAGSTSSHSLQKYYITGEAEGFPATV
UniProt P42336, sequence (whole entry, looked up): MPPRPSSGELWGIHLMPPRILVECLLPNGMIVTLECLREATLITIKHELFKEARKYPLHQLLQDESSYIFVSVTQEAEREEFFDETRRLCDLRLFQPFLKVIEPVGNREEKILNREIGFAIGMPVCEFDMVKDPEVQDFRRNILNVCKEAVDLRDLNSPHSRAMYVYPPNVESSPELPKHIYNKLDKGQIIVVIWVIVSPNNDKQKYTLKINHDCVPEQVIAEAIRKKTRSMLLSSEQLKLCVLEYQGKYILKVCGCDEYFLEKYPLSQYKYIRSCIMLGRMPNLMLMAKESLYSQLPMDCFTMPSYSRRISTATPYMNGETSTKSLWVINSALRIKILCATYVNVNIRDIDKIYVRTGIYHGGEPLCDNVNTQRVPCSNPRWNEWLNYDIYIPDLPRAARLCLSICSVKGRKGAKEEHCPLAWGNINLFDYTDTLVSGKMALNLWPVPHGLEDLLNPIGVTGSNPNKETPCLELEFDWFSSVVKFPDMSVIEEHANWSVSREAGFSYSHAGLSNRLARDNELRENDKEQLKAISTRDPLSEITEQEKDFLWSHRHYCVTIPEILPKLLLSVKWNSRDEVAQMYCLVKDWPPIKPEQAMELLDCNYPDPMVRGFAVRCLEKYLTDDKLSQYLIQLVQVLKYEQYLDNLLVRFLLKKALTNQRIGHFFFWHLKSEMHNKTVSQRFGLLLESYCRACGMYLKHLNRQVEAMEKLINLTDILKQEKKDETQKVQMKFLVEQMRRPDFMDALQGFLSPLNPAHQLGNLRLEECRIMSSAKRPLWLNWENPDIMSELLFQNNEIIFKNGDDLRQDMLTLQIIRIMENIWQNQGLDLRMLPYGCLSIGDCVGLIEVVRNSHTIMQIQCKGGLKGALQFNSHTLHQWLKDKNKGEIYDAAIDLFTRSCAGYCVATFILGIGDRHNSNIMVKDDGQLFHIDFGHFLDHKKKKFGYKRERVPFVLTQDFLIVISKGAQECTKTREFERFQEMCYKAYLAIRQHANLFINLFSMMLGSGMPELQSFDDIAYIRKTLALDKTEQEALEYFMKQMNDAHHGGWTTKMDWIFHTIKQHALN
UniProt Q01726, sequence (whole entry, looked up): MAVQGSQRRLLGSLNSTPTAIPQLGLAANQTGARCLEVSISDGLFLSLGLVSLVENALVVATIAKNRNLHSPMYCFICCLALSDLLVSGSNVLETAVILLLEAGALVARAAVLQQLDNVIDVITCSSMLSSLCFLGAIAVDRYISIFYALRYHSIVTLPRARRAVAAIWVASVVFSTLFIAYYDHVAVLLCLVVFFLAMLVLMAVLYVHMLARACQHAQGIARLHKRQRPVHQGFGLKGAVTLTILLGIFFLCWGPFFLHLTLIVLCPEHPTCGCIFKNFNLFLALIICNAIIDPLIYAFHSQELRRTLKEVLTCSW
UniProt Q13555, sequence (whole entry, looked up): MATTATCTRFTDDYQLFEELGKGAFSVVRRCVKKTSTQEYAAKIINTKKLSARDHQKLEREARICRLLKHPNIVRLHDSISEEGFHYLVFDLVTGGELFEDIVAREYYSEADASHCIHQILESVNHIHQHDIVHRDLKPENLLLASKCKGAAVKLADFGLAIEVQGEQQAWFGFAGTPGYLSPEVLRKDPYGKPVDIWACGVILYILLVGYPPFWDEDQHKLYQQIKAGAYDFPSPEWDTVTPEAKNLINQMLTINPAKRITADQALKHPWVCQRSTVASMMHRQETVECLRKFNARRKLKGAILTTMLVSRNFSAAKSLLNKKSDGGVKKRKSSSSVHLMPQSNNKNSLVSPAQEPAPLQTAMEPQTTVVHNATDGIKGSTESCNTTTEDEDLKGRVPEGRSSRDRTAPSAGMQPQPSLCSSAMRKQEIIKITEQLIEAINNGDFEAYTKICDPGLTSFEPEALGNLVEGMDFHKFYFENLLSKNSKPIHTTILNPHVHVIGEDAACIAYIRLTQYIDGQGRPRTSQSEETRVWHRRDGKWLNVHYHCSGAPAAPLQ
UniProt Q7RTN6, sequence (whole entry, looked up): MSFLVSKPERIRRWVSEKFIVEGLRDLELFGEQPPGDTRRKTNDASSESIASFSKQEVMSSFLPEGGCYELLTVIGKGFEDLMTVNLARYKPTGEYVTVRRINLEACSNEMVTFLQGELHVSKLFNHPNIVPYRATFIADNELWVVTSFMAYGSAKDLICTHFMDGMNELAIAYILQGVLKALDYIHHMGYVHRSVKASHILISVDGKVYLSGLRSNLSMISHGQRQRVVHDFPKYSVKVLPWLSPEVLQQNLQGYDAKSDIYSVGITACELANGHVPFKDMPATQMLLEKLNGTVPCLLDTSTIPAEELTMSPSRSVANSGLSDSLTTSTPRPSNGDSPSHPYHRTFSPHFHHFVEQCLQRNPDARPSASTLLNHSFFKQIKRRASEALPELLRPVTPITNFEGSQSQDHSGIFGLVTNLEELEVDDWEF
UniProt Q8IVH8, sequence (whole entry, looked up): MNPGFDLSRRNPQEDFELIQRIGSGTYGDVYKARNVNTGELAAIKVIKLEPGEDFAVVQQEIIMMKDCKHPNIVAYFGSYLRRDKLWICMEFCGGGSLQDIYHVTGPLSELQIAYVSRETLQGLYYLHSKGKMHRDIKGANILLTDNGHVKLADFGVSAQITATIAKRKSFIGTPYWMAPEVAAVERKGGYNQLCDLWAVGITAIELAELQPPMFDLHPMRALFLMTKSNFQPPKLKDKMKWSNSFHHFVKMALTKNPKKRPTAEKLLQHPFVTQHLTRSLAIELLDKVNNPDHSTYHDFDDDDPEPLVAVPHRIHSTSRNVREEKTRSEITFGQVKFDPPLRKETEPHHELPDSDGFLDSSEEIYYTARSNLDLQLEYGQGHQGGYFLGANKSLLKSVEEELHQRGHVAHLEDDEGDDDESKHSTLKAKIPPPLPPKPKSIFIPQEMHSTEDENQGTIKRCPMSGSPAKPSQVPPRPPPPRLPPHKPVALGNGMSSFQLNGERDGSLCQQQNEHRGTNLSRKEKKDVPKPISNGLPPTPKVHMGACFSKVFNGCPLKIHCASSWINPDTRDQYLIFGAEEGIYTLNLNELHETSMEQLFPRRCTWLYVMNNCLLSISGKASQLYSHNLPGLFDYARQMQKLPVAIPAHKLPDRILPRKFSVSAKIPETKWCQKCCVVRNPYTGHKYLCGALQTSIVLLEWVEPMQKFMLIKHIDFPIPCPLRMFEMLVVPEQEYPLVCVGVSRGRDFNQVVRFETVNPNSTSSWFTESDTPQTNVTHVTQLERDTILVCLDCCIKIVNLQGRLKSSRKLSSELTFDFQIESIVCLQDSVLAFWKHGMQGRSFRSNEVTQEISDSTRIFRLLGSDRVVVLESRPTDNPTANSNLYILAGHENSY

`CN[C@@H]1[C@H](O)[C@H](NC)[C@H]2O[C@]3(O)[C@H](O[C@@H]2[C@H]1O)O[C@H](C)C[C@H]3NC(=O)Cc1cc(Cl)ccn1` gave an inhibition of -2% (ADRA1D (Homo sapiens, UniProt P25100); ligand displacement, radioligand; 10 µM).
`CN(/N=C/c1ccccc1C(=O)O)c1nc(-c2ccccc2Cl)cs1` has an inhibition of -15.2% (MAP4K3 (Homo sapiens, UniProt Q8IVH8); enzyme activity, inhibitor; 1 µM).
For `CN(C)[C@H]1C[C@@]23CC[C@@]4(O2)C(=CC[C@]2(C)[C@@H](c5ccc6ccncc6c5)CC[C@H]24)C=C3[C@@H](O)[C@@H]1O`, the inhibition was -1.9% (STRADA (Homo sapiens, UniProt Q7RTN6); ATP probe labelling, inhibitor, KiNativ profiling; 1 µM).
With `CCOC(=O)[C@](CC)(CCCSCCOCCOCCNC(=O)c1ccc(-c2c3ccc(=N)c(S(=O)(=O)O)c-3oc3c(S(=O)(=O)O)c(N)ccc23)c(C(=O)O)c1)NC(=O)c1ccc(C2CC2)c(Cc2ccc(F)cc2)n1` the inhibition was 0% (Estrogen receptor (ESR1, Homo sapiens, UniProt P03372); ligand displacement, radioligand; 10 µM).
`CS(C)(=O)=Nc1ccc(-c2ccc(-c3nc4cc(O[C@@H]5CO[C@H]6[C@@H]5OC[C@H]6O)[nH]c4cc3F)cc2)cc1` has an inhibition of 11% (CAMK2G (Homo sapiens, UniProt Q13555); enzyme activity, inhibitor; 10 µM).
With `Cc1ccc2c(n1)c(-c1cccc(S(C)(=O)=O)c1)c(C)n2C/C(F)=C/CN` the inhibition was -3% (MC1R (Homo sapiens, UniProt Q01726); ligand displacement, radioligand; 10 µM).
`NCCc1ccccn1` gave an inhibition of 31.1% (ache; enzyme activity, inhibitor, Ellman; 20 µM).
With `C[C@H](NCc1ccc(-c2ccc(C(F)(F)F)cc2)cc1)C(N)=O` the inhibition was 0% (PIK3CA (Homo sapiens, UniProt P42336); cell-free assay, competition with immobilised ligand; 1 µM).
`CCN(CC)CCNC(=O)c1ccc(Nc2nccc3[nH]c(-c4cccc(OC)c4F)nc23)cc1` gave an inhibition of 77.1% (ache; enzyme activity, inhibitor, Ellman; 5 µM).
`COc1ccc(F)cc1S(=O)(=O)Nc1cnc2c(c1)C(=O)NCCO2` gave an inhibition of 2% (GABAA receptor; radioligand binding; central; 10 µM, together with: flunitrazepam).
`C[n+]1cn([C@@H]2O[C@H](COP(=O)([S-])OP(=O)(O)CP(=O)(O)O)[C@@H](O)[C@H]2O)c2nc(N)nc(O)c21` (stereo partly drawn) gave an inhibition of 29.2% (mRNA decapping complex subunit 2, with Dcp1 (dcp2, Schizosaccharomyces pombe, UniProt O13828); 200 µM, 0.5 h).
The inhibition of `CC(C)[C@H]1NC(=O)C[C@H]2/C=C/CCSSC[C@@H](NC1=O)C(=O)N[C@H](Cc1cccc3ccccc13)C(=O)NCC(=O)O2` is reported as 9.8% (RET (Homo sapiens, UniProt P07949); enzyme activity, inhibitor; 10 µM).

Repeated from above:
`CCN(CC)CCNC(=O)c1ccc(Nc2nccc3[nH]c(-c4cccc(OC)c4F)nc23)cc1` gave an inhibition of 77.1% (ache; enzyme activity, inhibitor, Ellman; 5 µM).
`COc1ccc(F)cc1S(=O)(=O)Nc1cnc2c(c1)C(=O)NCCO2` gave an inhibition of 2% (GABAA receptor; radioligand binding; central; 10 µM, together with: flunitrazepam).
